Results from different studies.
A part holds a random share of what one study measured.

Sample 1
Target: Ras GTPase-activating protein-binding protein 1, RRM domain (G3BP1, Homo sapiens, UniProt Q13283)
Chain of UniProt Q13283 (whole entry, looked up): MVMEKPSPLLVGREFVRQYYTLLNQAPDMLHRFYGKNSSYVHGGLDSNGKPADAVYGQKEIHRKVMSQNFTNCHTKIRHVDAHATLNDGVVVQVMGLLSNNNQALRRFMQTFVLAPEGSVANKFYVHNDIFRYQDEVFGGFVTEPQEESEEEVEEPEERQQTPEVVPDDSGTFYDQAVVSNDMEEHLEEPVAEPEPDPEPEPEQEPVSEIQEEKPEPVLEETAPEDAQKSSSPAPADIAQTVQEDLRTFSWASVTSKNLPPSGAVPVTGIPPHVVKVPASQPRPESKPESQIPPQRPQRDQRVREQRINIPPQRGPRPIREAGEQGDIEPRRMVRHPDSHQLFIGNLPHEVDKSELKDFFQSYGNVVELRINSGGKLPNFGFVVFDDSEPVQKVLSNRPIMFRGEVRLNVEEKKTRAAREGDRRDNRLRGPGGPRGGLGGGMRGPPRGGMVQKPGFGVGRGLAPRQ
Method: RNA Bind-n-Seq
Molecule type: RNA
Medium: in vitro
Concentration: 1 µM
Notes: whole 134-nt RNA, ends assumed
Together with: 150 mM KCl
Baseline: input library
Direction: higher = stronger binding
Sequence	log2 enrichment
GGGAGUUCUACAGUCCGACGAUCGCAGGAAGUAAAAACAAAUGGAAAUGCUUCGGAUUGUGGCAGGGGUGGGGGUUGCUAAGGAAAGGGUGGGAUGGGAGUGGGUAAAGAGUUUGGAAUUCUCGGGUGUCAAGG	1.03
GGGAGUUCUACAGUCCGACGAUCUCCUCAAGUCCUGUGCUACACAUCGUAUGUACCGAAUCGGUUGGUUGGUUGGAAAGUAUUAUGUUACGCCGUUCGGAUCUGCACUUCCAGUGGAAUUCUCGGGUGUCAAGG	-0.128
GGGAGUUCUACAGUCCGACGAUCCAAGUCCUGUGCUACACAUCGUAUGUACCGAAUCGGAAAGGAAAAAAAGGAAAGGAAAGUAUUAUGUUACGCCGUUCGGAUCUGCACUUCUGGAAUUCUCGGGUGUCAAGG	-0.171
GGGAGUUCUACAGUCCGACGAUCUGGCCCUGGUGGCAUGCGGGGAGGACGAGGUGGCCUCAUGGAUCGUGGUGGUCCCGGUGGAAUGUUCAGAGGUGGCCGUGGUGGAGACAGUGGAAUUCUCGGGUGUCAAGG	1.13
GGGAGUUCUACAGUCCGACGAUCCUCAAGUCCUGUGCUACACAUCGUAUGUACCGAAUCGGUGGAAAGGAAAAAGGAAAGUAUUAUGUUACGCCGUUCGGAUCUGCACUUCCAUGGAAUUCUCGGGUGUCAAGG	-0.135
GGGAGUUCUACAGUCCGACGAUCACCAUGCAGGUGGGCAUCUUUGGGAAGUGGGGCAAGGGGGGGAUAGGGAGGGGGGUAACACUUUGGGAACAGGUGGUCCCAGGUCGUUUUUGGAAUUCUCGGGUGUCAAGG	0.981
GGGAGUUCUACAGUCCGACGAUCCUCAAGUCCUGUGCUACACAUCGUAUGUACCGAAUCGGUGGAAAAAAAGGUGGAAAGUAUUAUGUUACGCCGUUCGGAUCUGCACUUCCAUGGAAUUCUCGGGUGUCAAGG	-0.166
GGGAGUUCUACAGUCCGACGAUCCAAGUCCUGUGCUACACAUCGUAUGUACCGAAUCGGGGUUUGGGUUUGGGUUUGGGAAAGUAUUAUGUUACGCCGUUCGGAUCUGCACUUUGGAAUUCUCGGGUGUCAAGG	0.766
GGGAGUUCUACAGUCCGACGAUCCUGUGCUACACAUCGUAUGUACCGAAUCGGGGCCCCCCCGGCCCCCCCGGGGCCCCCCCGGAAAGUAUUAUGUUACGCCGUUCGGAUCUGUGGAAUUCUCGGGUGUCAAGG	-0.582
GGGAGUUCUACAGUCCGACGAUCUCCUGUGCUACACAUCGUAUGUACCGAAUCGGGUUUUUUUGGGUUUUUGGGUUUUUGGGAAAGUAUUAUGUUACGCCGUUCGGAUCUGCAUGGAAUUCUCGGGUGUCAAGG	-0.0916
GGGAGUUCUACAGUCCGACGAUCUGGGAGGUGGAUUUUGUUUAUUUUUUUAGCUCAUUUCCAGGGGUGGGAAUUUUUUUUUAAUAUGUGUCAUGAAGAAAGUUGUUUUUGAAAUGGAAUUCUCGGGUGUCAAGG	0.629
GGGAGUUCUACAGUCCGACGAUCUAACUUUAGAGGAGGAUCUGAUGGAUAUGGCAGUGGACGUGGAUUUGGGGAUGGCUAUAAUGGGUAUGGAGGAGGACCAGGAGGUGGCAAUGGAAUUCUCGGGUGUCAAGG	-0.347
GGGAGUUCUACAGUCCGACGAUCCUGUGCUACACAUCGUAUGUACCGAAUCGGGGAAAAAAAGGGGAAAAAAAGGGGUUUGGGGAAAGUAUUAUGUUACGCCGUUCGGAUCUGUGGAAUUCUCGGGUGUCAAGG	0.609
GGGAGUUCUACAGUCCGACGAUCAGUCCUGUGCUACACAUCGUAUGUACCGAAUCGGGGUUUUGGGGUUUUGGGUUUUGGAAAGUAUUAUGUUACGCCGUUCGGAUCUGCACUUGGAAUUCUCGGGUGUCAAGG	-0.297

Sample 2
Target: Sal-like protein 4, full length isoform B (SALL4, Homo sapiens, UniProt Q9UJQ4-2, residues 1-616)
Method: universal PBM
Molecule type: double-stranded DNA, one strand shown
Medium: in vitro
Concentration: not given
Notes: 8-mer, flanks averaged, mean of replicates
Direction: higher = stronger binding
Sequence	E-score
AGCGAAAA	0.061
AAACCTAG	-0.0801
GCTCAAAA	-0.00514
TGCCAGCA	-0.0286
AGCTCCCA	-0.272
ACTCCCCC	-0.182
ATGGTAAA	0.203
CCTAACAA	0.169
CTAAATAA	0.286
AATTAGGT	0.244
AGATAGAT	0.0922
ATTCGTGC	0.0638
CGACAATA	0.272
GTCCCAAA	-0.0968
AAGGGAAC	-0.152
TTCTACAA	0.173
ACGCTGGA	-0.174

Sample 3
Target: Histone acetyltransferase KAT6A, both winged helices, GST fusion (KAT6A, Homo sapiens, UniProt Q92794, residues 1-181)
Method: protein binding microarray
Molecule type: double-stranded DNA, one strand shown
Medium: in vitro
Concentration: not given
Notes: 8-mer, flanks averaged, mean of 2 arrays, mostly near background
Baseline: not given
Direction: higher = stronger binding
Target sequence (chain): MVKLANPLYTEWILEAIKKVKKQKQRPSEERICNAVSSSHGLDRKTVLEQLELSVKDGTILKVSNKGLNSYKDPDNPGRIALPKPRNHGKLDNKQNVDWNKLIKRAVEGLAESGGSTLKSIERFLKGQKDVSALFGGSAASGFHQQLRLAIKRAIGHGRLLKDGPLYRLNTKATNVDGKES
Sequence	E-score
GACTGATA	-0.208
AATCCGTC	0.185
ATGCTGGC	-0.173
TCTGAGCA	-0.214
TAGACCAA	-0.18
CCAATTTC	-0.159
AGGGCTCA	-0.145
GGAGTGAA	-0.165
AACAAGCG	0.158
GGACCTAA	-0.0312
AGTAACAG	-0.0856
ACAGCTTG	-0.0605
GGTCGTTA	-0.101
GCATCCGA	0.11
CCTGCGGA	0.0341
ATGCCGGG	0.286
AGTTAGAG	-0.216

Sample 4
Target: Prothrombin, mature alpha-thrombin (F2, Homo sapiens, UniProt P00734)
Method: aptamer microarray, sandwich
Molecule type: DNA with 2'F-ANA
Medium: in vitro
Concentration: 200 nM
Notes: whole 15-mer aptamer, many near background
Together with: Cy3 exosite-II aptamer, 400 nM
Direction: higher = stronger binding
Sequence: GGTTGGTGTGGTTGG
Modification	mean fluorescence intensity
2'F-ANA at 2 3 5 8 11 12 13 14	172 a.u.
2'F-ANA at 1 2 4 7 8 9 10 15	50.9 a.u.
2'F-ANA at 1 5 6 7 8 10	72.9 a.u.
2'F-ANA at 1 2 5 8 9 10 12 13 14 15	45.9 a.u.
2'F-ANA at 5 8 9 12 14 15	47.7 a.u.
2'F-ANA at 3 4 6 7 8 9 11 12 13	649 a.u.
2'F-ANA at 1 4 5 6 8 11 13 14	49.7 a.u.
2'F-ANA at 4 5 6 8 9 11 14	52.9 a.u.
2'F-ANA at 1 4 5 7 10 14 15	58.7 a.u.
2'F-ANA at 4 5 7 8 9 13 14 15	44.2 a.u.
2'F-ANA at 1 2 3 5 6 7 10 11 13 15	50.9 a.u.
2'F-ANA at 1 2 3 5 6 7 8 9 12 13 14 15	51.6 a.u.
2'F-ANA at 3 4 7 8 9 13 14	296 a.u.
2'F-ANA at 4 6 7 8 10	102 a.u.
2'F-ANA at 1 9 10 11 12 14 15	47 a.u.
2'F-ANA at 1 3 4 6 10 11 12 13	65.1 a.u.
2'F-ANA at 4 5 6 7 9 14 15	45 a.u.
2'F-ANA at 2 3 11 12 13 14	472 a.u.
2'F-ANA at 1 2 3 4 7 12 15	472 a.u.
2'F-ANA at 1 4 5 6 8 10	53.8 a.u.
2'F-ANA at 1 2 3 5 6 8 12 13 14 15	48.8 a.u.
2'F-ANA at 1 2 4 5 7 10 11 12 14 15	48 a.u.
2'F-ANA at 1 3 4 5 8 9 10 12 14	44.7 a.u.
2'F-ANA at 1 2 5 6 7 10 11 12 13	47.6 a.u.
2'F-ANA at 2 4 5 6 7 10 12 13 14 15	51.1 a.u.

Sample 5
Target: RNA binding protein fox-1 homolog 2, RRM domain, GST-SBP tag (RBFOX2, Homo sapiens, UniProt O43251-10, residues 100-194)
Method: RNA Bind-n-Seq
Molecule type: RNA
Medium: in vitro
Concentration: 365 nM
Notes: natural RNA segment, single round, ends assumed
Baseline: no-protein control
Direction: higher = stronger binding
Residues (chain): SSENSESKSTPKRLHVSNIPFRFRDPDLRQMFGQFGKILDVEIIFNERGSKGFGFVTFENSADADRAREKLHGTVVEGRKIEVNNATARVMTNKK
Sequence	RBNS enrichment (R)
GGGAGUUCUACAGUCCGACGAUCUAGUCAUGUGACCUGAGCGUUUGCAUACAUACACUUUUUUUUAUUAUGAAGAAUGGGUACUUCUGGAUUCCAGGAAAAAUUCUUAUAACUAAAAUCAAUAUGUUUUAAAAUGGAAUUCUCGGGUGCCAA	0.493
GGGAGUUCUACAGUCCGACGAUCUUCCACGUACUGCACGGUCGUAUUUCAUGAGCUUUCUGUCCAUAGCACAGAAACAGAGCAGAAAGUAGUACAAUCAUGUUGGACCUUCUUUCUGUUCUCUUUACUCUUCUUGGAAUUCUCGGGUGCCAA	0.341
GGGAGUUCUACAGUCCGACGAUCGUGAGAUCAACAAAUGAGACCCUGGGGACAGCCCCCGAAGAUUAGGAAGAUGCUAAUCCACACAGAAAUGGCAGCCCUUGGUCUGGAAAGGGAAGGCUGCGGGAAUCAUGUGGAAUUCUCGGGUGCCAA	0.377
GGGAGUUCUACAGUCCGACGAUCAUAGUAUUUCUAUAAUUAUGUAACGAGAAUAGUGUUGCACUGUAAUCUAUCAUAUAGAGCUAUAUGUAUGGAAAAUUUUGAUCAAUUUUUUAAGAAAUGUAUCCUGUUUGUGGAAUUCUCGGGUGCCAA	0.488
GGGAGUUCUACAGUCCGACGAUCAUUUUGUAGUACACAUGAAGCAGAAGGGAAAGAAGUAGGCAGAAAUGAGCAGUUCGCUCCUCCCUGAUAAGAGUUGUCCCAAAGGGUCGCUUAAGGAAUCUGCCCCACAGUGGAAUUCUCGGGUGCCAA	0.283
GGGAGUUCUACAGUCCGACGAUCGCAGGCCAGAGGGUCAGCUUGUGUUUUAUUUUCUGAUUUCUCCUGCAUGCUUUCUGGAGAUGAGGAUUUUUUGUCAGGUAGCUAGGAGAGCACUGCCACCUUGUGUCCAUUGGAAUUCUCGGGUGCCAA	26
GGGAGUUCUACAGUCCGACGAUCUCUUUUCCCAGCCUUUUGCAGAACACAGUAGACAGAACUGCCACCUUCAAUUGGUACUUUAUUCUUUGCUGCUGUUUUUGUAUAAAAUGACCUAUCCCACGUUUUUGCAUUGGAAUUCUCGGGUGCCAA	0.574
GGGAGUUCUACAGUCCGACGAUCGAUUGUCCUGGCCGCGACCUGAGACCUCCAUGAGUGGAGGGAAGAGUGAUCUAUGUCUCUUCCCCCCAGCAGCUGGGACCAGUCCUAGCCCCGUCCCCAACCCCUUUCCCUGGAAUUCUCGGGUGCCAA	0.988
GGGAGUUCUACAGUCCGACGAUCUCAGAGGACUCAGCGUCAGGAUCCGAUGAGUAGAAACGGAGGAAGGUUCUCUUUGCGCUUGCCUUCUCACACCCCCCGACUCCCCACCCAUAUUUUGGUACCAGUUUCUCUGGAAUUCUCGGGUGCCAA	0.554
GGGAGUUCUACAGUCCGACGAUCAGCUGCUCCUGAGCAUGAAGGAACCCACCCUAAGCCAGUCCUGACAGCUGACAUGCCUCACUCAGAGAGGGGAAAGGCACUGGGCAGCCUUGAAGGAAGCCCUUCUCUCCUGGAAUUCUCGGGUGCCAA	1.37
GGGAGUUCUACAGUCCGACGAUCGAAGUAAGCACAGCCCAUCUCCUGUUCACAUUCUCUAGACCGUCAUCACCUUUGCCCUGCUCUGGGGGACAGACAUGACAGUAAAAGUGUCCCGGGACUCUUUCCGUUCAUGGAAUUCUCGGGUGCCAA	0.35
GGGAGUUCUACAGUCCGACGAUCUCAAGGACAGGAGCCUGGUCCUUCCCUGAUGGCCUUUGGACCCAGGGCCUGACUUGAGCCACUCCUUCCUUCAGGACUCUGCGGGAGGCUGGGGCCCCAUCUUGAUCUUUUGGAAUUCUCGGGUGCCAA	0.469

Excerpt of the above (sample 1):
Sequence	log2 enrichment
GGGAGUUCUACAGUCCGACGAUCUGGCCCUGGUGGCAUGCGGGGAGGACGAGGUGGCCUCAUGGAUCGUGGUGGUCCCGGUGGAAUGUUCAGAGGUGGCCGUGGUGGAGACAGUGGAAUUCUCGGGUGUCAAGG	1.13
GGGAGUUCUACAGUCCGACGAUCCUCAAGUCCUGUGCUACACAUCGUAUGUACCGAAUCGGUGGAAAGGAAAAAGGAAAGUAUUAUGUUACGCCGUUCGGAUCUGCACUUCCAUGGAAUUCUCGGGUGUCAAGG	-0.135
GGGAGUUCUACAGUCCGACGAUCACCAUGCAGGUGGGCAUCUUUGGGAAGUGGGGCAAGGGGGGGAUAGGGAGGGGGGUAACACUUUGGGAACAGGUGGUCCCAGGUCGUUUUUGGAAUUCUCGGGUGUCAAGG	0.981
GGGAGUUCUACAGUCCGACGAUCCUCAAGUCCUGUGCUACACAUCGUAUGUACCGAAUCGGUGGAAAAAAAGGUGGAAAGUAUUAUGUUACGCCGUUCGGAUCUGCACUUCCAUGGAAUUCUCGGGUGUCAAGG	-0.166
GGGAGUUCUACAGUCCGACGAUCCAAGUCCUGUGCUACACAUCGUAUGUACCGAAUCGGGGUUUGGGUUUGGGUUUGGGAAAGUAUUAUGUUACGCCGUUCGGAUCUGCACUUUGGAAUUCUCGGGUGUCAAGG	0.766
